# Results of several laboratories.
# Parts stem from different laboratories: compare values within a part only. Positions count from the first letter of the parent shown.

# Block 1 — target: CCNA1, cyclin fold, Cln2 fusion (human); method: yeast growth competition, sequencing; matrix: yeast; notes: weak parent motif; baseline: not given; reading: higher = stronger binding
# Starting sequence: RBL1 docking peptide (human); GSAKRRLFGEDPP; partner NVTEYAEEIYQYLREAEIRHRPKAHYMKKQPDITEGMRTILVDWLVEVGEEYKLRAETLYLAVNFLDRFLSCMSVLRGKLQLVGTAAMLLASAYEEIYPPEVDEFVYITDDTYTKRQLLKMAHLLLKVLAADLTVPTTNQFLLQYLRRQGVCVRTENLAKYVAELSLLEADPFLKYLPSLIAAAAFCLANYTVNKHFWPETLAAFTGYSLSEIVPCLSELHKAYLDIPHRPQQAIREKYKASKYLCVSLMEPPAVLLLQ
Variant,normalised enrichment score
L7R,0.0116
F8V,0.379
L7H,0.0923
R6W,0.116
K4E,0.197
K4H,0.249
P13N,0.63
K4C,0.335
D11N,0.462
L7F,0.389
L7I,0.842
F8E,0.0508
E10D,0.658
E10P,0.583

# Block 2 — method: DHFR PCA, dose-response; matrix: yeast; notes: Hill fit, mean, not affinity; added: (+)-ABA, dose series; reading: lower = more sensitive
# Target: ABI1, truncated, D143A, DHFR fusion (Arabidopsis thaliana, UniProt P49597)
# Starting sequence: PYL1, truncated, DHFR fusion (Arabidopsis thaliana, UniProt Q8VZS8); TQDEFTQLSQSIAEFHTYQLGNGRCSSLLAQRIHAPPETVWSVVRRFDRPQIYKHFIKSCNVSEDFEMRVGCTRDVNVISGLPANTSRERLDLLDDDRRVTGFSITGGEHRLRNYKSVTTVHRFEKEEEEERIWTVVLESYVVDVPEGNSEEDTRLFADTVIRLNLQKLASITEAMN
Variant,ABA EC50
R88H,3.6 µM
T135A,15 µM
I12L,15 µM
G71W,482 µM
V43S,147 µM
R113Y,9.97 µM
A35I,219 µM
A30N,17.1 µM
I172W,37 µM
S11M,3.4 µM
E129F,3 µM
M68F,4.51 µM
G148K,19.4 µM
R90E,42.3 µM
S63W,38.6 µM
D153G,239 µM
I12T,50.3 µM
R24G,31.9 µM
L29E,460 µM

# Block 3 — method: protein binding microarray; form: double-stranded DNA, one strand shown; matrix: in vitro; tested at: not given; baseline: not given; reading: higher = stronger binding
# Target: Histone acetyltransferase KAT6A, winged helix 2, GST fusion (KAT6A, Homo sapiens, UniProt Q92794, residues 85-181)
# Notes: 8-mer, flanks averaged, mean of 2 arrays, mostly near background
# Residues (chain): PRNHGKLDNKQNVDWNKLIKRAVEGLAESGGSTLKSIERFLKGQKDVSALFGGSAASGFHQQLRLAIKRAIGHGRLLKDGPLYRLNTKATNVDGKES
Strand,E-score
GGAACAAA,0.0982
CCAGCGGC,0.221
AGTGGGGA,-0.109
GCAAAGAC,0.0371
AGCAATCG,-0.0622
CTAACGAG,-0.0133
GCGATATA,0.166
AAGGCTCA,-0.0274
CGCACAAC,0.014
GCCCCGTA,-0.171
ATCTCAAG,0.0143
ACGCCAAG,-0.123
CATTACAC,-0.199
CACCCCGG,0.0645
AAGTTAAT,0.136
ATTCGAAT,-0.0326
ATTAATCC,0.0808
GCGCCAGC,0.21
CACTGCCC,0.0294
ACCGATTA,-0.12
ACACCGCG,0.103
CGTTAACG,0.00181
GGTGACAC,0.0428
CCCTAGTA,-0.0985
GACAATTA,0.0406

# Block 4 — method: RNA Bind-n-Seq; form: RNA; matrix: in vitro; tested at: 200 nM; notes: whole 134-nt RNA, ends assumed; added: 150 mM KCl; baseline: input library; reading: higher = stronger binding
# Target: Fragile X messenger ribonucleoprotein 1, C-terminal low-complexity region (Fmr1, Mus musculus, UniProt P35922)
# Shared flanks, not repeated: GGGAGUUCUACAGUCCGACGAUC … UGGAAUUCUCGGGUGUCAAGG
Strand,log2 enrichment
UGGCCCUGGUGGCAUGCGGGGAGGAAGAGGUGGCCUCAUGGAUCGUGGUGAUCCCGGUGGAAUGUUCAGAGGUGGCCGUGGUGGAGACAG,-0.0945
CACAGACAACACGCACCCACACAGACACAGAGGGAAGGGGUUGGGAUGGGGACAGGAUGCACAGCAGGGCGGGGUAGGACCCCAGCCCCU,1.15
CACAGACAACACGCACCCACACAGACACAGAGGGAAGGGGUUGGGAUGGGGACAGGGUGCACAGCAGGGCGGGGUAGAACCCCAGCCCCU,1.17
CUCAAGUCCUGUGCUACACAUCGUAUGUACCGAAUCGGUUUUUUUGGUGGAGGAAAGUAUUAUGUUACGCCGUUCGGAUCUGCACUUCCA,-0.0507
UCCUGUGCUACACAUCGUAUGUACCGAAUCGGGUUUUUUUGGGAAAAAAAGGGAAAGGGAAAGUAUUAUGUUACGCCGUUCGGAUCUGCA,-0.234
UCCUGUGCUACACAUCGUAUGUACCGAAUCGGGGAGGGGAAAAAGGGGUUUUUUUGGGGAAAGUAUUAUGUUACGCCGUUCGGAUCUGCA,0.531
ACCAUGCAGGUGGGCAUCUUUAAAAAGUGGGGCAAGGGGGGGAUAGGGAGGGGGGUAACACUUUGGGAACAGGUGGUCCCAGGUCGUUUC,1.41
GGCAAGAGGAGGAACGACGUAGAAGAGAGGAAGAGAUGAUGAUUCGUCAACGUGAGAUGGAAGAACAAAUGAGGCGCCAAAGAGAGGAAA,0.877
UAACUUUAGAGGAGGAUCUGAUGGAUAUGGCAGUGGACGUGGAUUUGGGGAUGGCUAUAAUGGGUAUGGAGGAGGACCUGGUGGUGGCAA,0.217
AGUCCUGUGCUACACAUCGUAUGUACCGAAUCGGGUUUUGGGUUUUGGGGUUUUGGGAAAGUAUUAUGUUACGCCGUUCGGAUCUGCACU,0.584
AAGUCCUGUGCUACACAUCGUAUGUACCGAAUCAAAUUUAAACCCAAAUUUUUAAAAAAGUAUUAUGUUACGCCGUUCGGAUCUGCACUU,0.0939
CAAGUCCUGUGCUACACAUCGUAUGUACCGAAUCGGGUUUUUGGGUGGGAAAGGGAAAGUAUUAUGUUACGCCGUUCGGAUCUGCACUUC,0.837
UCAAGUCCUGUGCUACACAUCGUAUGUACCGAAUCGGGGAAGGGAAGGGAAGGGGAAAGUAUUAUGUUACGCCGUUCGGAUCUGCACUUC,0.7
UGUCAUGGAUUCAAGUUAUUAAAAGCAUAAGUUUGGAAGACAGGCUUGCCGAAAUUGAGGACAUGAUUAAAAUUGCAGUGAAGUUUGAAA,-2.28

# Block 5 — method: RNA Bind-n-Seq; form: RNA; matrix: in vitro; tested at: 365 nM; baseline: no-protein control; reading: higher = stronger binding
# Target: RNA binding protein fox-1 homolog 2, RRM domain, GST-SBP tag (RBFOX2, Homo sapiens, UniProt O43251-10, residues 100-194)
# Notes: natural RNA segment, single round, ends assumed
# Shared flanks, not repeated: GGGAGUUCUACAGUCCGACGAUC … UGGAAUUCUCGGGUGCCAA
# Construct (chain): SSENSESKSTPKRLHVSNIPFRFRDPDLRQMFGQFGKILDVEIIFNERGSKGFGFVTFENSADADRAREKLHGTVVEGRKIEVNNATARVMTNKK
Strand,RBNS enrichment (R)
CCCAUGUUUAUUAAGAAUCAUUGUGCUUAAUAAUACCAAGACUAAGCACCAUAACCAAGAAAUACUAAUGUAAAGAUUGUUUCUUGUUUCAGGAAUGGUUAAUUCUUCAA,0.351
GGUUUCUUCAUUUUCUUCCAUUACUUAGGAAAGAGUGGAAACUCCACUAAAAUUUCUCUGUGUUGUUACAGUCUUAGAGGUUGCAGUACUAUAUUGUAAGCUUUGGUGUU,0.691
GUGCAAAAUAGUGGUGGUAAAGCACACAUCAUUGGACUAUGCAAGUUGAUUUCUAGGAGCAGCACUGAGCAGCUGGCCAUUGCUAGCACACACCCUUUCCCUCACCUGUA,1.65
CCCUCAGACAUUGGGUUGCACCCCAACAAAUAUUAAAUGGCUUCUUCUUAAAGCCCAGAGAAAGAGGUUUUUUAAAAGACUGUCGCCAAAUAGCUGAGCCAAAAGGCUGA,0.294
UAAACCAGACUCACUUUUCUGAAAAAUCUCCAUUGUUGAGGAGAGGCUGCUCAAUCGACACCCCGAGUUCUCAUGACUGGGAAGAUAGUUUUCUUCAGGUGUCAAUGGCG,0.625
GCACUGGGCUGAGGGGGUCUCAGCUGGUCUGGAGUCCAGACCUCGCCAUCCCCUGCCCACCAUUGCCGUGGAGGGGGCUGCCAGGCAUAGCUGCUGUGAGCCAUGUCCUU,0.336
UUAGUGUCAUUGCCGAUUUUGGCUAUAACAGUGUCUUUCUAGCCAUAAUAAAAUAAAACAAAAUCUUACUGCUUGCUCAUUUGAUUUUAGAUGUAUUUUCUCUGGCUUAC,3.48
AGUUGUACAAAUUGUGAUUGAGGAAAUGAAAAGGUUUAUACUUUUUAAAAAAAAAAAAACAAAAACAAAAAACAAAACUUCAAAUGGAAUAAAUUAUUCAUGAAGCCUUC,1.07
GCCCAAUGCAAAAUCGAUGAAAUGGGGAGUUCUCUGGGCCAGGCCACAUUCACAUUCCCCUCCCCCUGUGGUCCAGUGAAGCCUCCGGACCCCAGGCUCUGCUCUGCCCU,0.356
GCCAAAGUUGUAGCUAAAUAUUUAUACACUUGUCUUGAAUUUUUUUCAGAUCCACUUAAAAUAUUUAGAAAAACGAGUUUUAUUCCUUAUGGGUCUUAUAGGGGAUAAAA,0.549
UACUUUCCCAGACUGGUGGCAUCUGAGUUCCCCAUCCUACCACUCUCACCCCACUUUCCUGCCCCACCUAAACCCUCGUUUUAGUAAUUUGUAGUGACUGUUCCCUUCCC,0.745
AUUGAAACUGUUGGUGGUGAUGGAUUUUGUAGCUUGCUGCUUGUUUCACCACUGGUCAAAUUUUAACCAUUAAAUUGCCAUUCACUUUUAGAAUCUUGUAUUUAAGUUUU,0.983

# Block 6 — target: CREB5, bZIP domain (human); method: DHFR protein complementation; matrix: yeast; baseline: wild-type JUN-FOS pair; reading: higher = stronger binding
# Notes: single substitutions, most at no-binding floor
# Starting sequence: JUN, bZIP domain (human); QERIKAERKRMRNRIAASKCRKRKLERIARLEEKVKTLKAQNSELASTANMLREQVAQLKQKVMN; partner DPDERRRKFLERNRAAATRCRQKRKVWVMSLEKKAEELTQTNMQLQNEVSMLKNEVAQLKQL
Variant,binding fitness [natural log]
K39I,-0.406
A49C,-0.615
I28Y,-0.383
I28V,-0.282
A29W,-0.379
I28A,-0.409
E44M,-0.28
A29K,-0.415
L52F,-1.07
A57Y,-0.473
M51L,-0.233
V35R,-1.35
I28C,-0.585
Q55H,-0.535
E44G,-0.729

# Further values, each from its own experiment
Substance,target,assay,test system,setting,scale,quantity,value
"PhoQ, residues 284 288 289 292 302 303 TAVSDG","PhoP, residues 12 14 15 18 19 NHFIF (Escherichia coli, UniProt P23836)","Sort-seq, item: YFP reporter",E. coli,"PhoQ-PhoP variant library, added: 10 µM Mg2+","baseline: high Mg2+ state, higher = stronger signaling",fold induction,1.1

# For quick reference, copied from above (block 2):
Variant,ABA EC50
A30N,17.1 µM
I172W,37 µM
S11M,3.4 µM
E129F,3 µM
M68F,4.51 µM
G148K,19.4 µM
R90E,42.3 µM
S63W,38.6 µM
